Results from different studies.
Each numbered part is a random draw from the data of one study; scales do not carry over between parts. Values joined by “and” are separate records of one study, mostly repeats; a detail may differ.
Chain of UniProt Q9H2X6 (whole entry, looked up): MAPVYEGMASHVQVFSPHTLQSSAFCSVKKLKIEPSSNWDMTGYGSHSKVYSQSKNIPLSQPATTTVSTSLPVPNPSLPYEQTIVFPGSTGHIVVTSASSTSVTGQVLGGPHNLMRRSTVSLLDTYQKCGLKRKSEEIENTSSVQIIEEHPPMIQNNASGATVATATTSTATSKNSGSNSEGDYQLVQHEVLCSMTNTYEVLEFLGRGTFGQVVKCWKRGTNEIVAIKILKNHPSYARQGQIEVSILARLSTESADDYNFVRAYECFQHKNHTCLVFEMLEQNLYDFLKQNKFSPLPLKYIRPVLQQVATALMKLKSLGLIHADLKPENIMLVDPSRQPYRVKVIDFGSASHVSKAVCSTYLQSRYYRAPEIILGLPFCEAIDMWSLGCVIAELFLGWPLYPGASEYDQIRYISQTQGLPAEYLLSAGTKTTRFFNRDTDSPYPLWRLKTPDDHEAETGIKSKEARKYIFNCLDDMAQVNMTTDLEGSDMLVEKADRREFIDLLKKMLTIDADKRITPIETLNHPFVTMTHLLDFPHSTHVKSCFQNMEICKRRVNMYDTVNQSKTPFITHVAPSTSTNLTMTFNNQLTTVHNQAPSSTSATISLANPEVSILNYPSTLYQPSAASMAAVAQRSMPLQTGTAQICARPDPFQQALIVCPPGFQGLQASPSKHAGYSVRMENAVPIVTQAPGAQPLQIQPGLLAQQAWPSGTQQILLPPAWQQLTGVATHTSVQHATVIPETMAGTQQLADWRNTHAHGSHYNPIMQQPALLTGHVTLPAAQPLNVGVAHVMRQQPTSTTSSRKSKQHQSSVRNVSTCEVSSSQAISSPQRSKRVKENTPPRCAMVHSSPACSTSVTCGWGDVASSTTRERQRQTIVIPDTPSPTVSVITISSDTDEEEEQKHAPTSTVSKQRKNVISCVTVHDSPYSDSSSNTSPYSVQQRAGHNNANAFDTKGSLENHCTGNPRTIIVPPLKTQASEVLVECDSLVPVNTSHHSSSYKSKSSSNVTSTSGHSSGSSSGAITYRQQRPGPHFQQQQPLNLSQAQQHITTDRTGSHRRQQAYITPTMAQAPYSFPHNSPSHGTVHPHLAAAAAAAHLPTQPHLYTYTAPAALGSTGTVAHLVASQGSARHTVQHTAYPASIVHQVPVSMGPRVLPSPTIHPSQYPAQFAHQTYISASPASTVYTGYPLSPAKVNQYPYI
Chain of UniProt Q9H422 (whole entry, looked up): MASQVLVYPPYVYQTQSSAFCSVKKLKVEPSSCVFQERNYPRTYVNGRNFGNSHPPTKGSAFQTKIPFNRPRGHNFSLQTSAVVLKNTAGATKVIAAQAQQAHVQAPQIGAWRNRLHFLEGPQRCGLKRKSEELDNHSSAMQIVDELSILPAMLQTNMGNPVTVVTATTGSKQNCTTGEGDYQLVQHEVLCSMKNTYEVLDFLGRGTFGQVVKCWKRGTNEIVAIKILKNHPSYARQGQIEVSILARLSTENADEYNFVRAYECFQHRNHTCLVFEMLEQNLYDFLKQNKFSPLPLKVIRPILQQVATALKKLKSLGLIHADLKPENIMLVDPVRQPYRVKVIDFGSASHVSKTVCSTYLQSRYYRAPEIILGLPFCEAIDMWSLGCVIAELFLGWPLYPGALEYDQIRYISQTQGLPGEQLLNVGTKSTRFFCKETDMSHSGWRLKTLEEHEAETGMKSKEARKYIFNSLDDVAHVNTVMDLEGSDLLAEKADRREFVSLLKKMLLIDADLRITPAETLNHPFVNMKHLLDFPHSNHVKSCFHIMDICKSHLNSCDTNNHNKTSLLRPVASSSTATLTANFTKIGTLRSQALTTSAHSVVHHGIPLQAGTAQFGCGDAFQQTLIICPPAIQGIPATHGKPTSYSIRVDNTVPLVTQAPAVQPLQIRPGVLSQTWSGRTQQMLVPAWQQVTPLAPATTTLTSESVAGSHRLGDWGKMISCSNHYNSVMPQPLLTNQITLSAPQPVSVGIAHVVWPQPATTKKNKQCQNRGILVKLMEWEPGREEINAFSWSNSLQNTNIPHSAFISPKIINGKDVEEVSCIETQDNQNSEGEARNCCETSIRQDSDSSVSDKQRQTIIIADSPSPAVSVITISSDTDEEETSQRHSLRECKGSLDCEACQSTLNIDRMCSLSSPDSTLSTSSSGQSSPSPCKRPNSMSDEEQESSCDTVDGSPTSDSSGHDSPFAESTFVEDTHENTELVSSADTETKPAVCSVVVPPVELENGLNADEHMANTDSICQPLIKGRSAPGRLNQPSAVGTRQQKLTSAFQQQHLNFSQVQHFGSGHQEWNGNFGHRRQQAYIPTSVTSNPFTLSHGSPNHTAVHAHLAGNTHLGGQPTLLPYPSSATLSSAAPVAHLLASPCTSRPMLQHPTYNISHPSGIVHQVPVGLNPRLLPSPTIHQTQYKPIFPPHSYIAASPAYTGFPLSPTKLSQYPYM
Chain of UniProt P36896 (whole entry, looked up): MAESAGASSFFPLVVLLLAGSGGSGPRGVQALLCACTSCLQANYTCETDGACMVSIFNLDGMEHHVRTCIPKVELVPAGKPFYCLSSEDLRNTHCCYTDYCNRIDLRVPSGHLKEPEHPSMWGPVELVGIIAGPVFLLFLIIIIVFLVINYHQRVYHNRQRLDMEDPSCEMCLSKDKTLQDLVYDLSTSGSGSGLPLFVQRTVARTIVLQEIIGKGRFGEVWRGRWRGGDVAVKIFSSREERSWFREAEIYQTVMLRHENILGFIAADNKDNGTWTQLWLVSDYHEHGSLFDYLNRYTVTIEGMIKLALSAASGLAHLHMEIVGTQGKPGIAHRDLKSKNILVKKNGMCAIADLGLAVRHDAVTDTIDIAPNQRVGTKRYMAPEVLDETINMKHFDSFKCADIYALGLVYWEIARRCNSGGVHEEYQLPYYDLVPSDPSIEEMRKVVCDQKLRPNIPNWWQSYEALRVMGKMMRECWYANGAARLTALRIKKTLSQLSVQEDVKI
Chain of UniProt Q15208 (whole entry, looked up): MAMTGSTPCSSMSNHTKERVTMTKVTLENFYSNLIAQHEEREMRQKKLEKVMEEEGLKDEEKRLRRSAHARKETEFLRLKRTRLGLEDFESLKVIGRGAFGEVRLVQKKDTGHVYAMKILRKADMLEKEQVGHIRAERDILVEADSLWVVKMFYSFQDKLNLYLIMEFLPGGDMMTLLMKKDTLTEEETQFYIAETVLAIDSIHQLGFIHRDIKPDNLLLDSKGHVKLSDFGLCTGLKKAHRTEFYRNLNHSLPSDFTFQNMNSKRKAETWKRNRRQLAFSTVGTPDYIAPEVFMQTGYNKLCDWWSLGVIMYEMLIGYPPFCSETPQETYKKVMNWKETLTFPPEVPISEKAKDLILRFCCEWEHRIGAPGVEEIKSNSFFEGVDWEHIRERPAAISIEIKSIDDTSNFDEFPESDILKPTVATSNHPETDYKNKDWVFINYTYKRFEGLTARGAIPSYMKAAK
Chain of UniProt Q8N752 (whole entry, looked up): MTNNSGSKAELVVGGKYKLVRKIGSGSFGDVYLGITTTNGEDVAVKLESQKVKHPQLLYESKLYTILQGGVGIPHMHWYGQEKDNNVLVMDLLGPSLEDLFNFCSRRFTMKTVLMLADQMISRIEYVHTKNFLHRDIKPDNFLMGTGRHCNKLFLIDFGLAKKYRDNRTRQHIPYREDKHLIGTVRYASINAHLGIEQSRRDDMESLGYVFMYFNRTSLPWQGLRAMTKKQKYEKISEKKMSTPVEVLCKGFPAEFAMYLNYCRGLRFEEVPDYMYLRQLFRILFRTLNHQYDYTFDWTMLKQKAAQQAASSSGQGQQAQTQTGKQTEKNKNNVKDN
Chain of UniProt Q13164 (whole entry, looked up): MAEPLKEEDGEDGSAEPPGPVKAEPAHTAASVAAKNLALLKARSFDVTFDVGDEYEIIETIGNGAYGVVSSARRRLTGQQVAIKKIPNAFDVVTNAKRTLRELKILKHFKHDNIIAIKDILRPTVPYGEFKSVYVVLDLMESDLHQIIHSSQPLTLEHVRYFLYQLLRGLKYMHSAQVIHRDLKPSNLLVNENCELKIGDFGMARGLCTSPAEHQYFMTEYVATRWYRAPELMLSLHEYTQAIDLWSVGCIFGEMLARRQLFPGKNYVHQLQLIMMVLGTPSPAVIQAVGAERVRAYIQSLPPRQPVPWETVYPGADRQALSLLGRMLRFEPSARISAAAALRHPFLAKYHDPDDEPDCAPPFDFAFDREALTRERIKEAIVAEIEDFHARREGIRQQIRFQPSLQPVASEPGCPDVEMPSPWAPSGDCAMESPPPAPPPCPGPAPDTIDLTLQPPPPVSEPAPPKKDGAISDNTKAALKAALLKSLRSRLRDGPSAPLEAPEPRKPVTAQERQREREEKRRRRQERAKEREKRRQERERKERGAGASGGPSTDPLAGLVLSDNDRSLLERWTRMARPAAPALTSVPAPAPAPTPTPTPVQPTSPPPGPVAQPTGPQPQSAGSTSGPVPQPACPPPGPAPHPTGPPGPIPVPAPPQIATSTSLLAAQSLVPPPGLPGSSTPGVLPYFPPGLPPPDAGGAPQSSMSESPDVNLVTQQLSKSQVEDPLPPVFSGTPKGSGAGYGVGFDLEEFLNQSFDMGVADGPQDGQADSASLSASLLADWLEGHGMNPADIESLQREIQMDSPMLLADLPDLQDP
Chain of UniProt P68400 (whole entry, looked up): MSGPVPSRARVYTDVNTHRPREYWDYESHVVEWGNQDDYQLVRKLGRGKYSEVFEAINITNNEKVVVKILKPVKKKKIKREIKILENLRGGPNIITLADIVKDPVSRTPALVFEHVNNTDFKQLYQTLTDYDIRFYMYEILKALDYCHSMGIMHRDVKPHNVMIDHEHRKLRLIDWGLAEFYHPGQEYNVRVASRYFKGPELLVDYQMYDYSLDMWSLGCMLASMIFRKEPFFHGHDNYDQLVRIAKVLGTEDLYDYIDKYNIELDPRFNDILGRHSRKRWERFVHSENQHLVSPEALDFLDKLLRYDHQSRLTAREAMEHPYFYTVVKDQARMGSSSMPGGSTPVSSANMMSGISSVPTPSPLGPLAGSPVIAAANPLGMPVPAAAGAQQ

Block 1 — method: competition with immobilised ligand; tested at: 1 µM; measurement: remaining binding
Structure (SMILES): CO[C@@H](C)c1c(Nc2ccc([C@@H](N(C)C(=O)C3CCS(=O)(=O)CC3)C(F)(F)F)cc2)cnc2cc(Cl)nn12
target = Mitogen-activated protein kinase 7 (MAPK7, Homo sapiens, UniProt Q13164); observed = cell-free assay; result = 100%
target = Serine/threonine-protein kinase/endoribonuclease IRE1 (ERN1, Homo sapiens, UniProt O75460); observed = cell-free assay; result = 100%
target = Casein kinase II subunit alpha (CSNK2A1, Homo sapiens, UniProt P68400); observed = cell-free assay; result = 100%
target = Homeodomain-interacting protein kinase 2 (HIPK2, Homo sapiens, UniProt Q9H2X6); observed = cell-free assay; result = 100%
target = Tyrosine-protein kinase ABL1, non-phosphorylated (ABL1, Homo sapiens, UniProt P00519); observed = cell-free assay; result = 74%
target = Dual specificity protein kinase CLK2 (CLK2, Homo sapiens, UniProt P49760); observed = cell-free assay; result = 100%
target = Serine/threonine-protein kinase 38 (STK38, Homo sapiens, UniProt Q15208); observed = cell-free assay; result = 88%
target = Interleukin-1 receptor-associated kinase 3 (IRAK3, Homo sapiens, UniProt Q9Y616); observed = cell-free assay; result = 86%
target = Death-associated protein kinase 3 (DAPK3, Homo sapiens, UniProt O43293); observed = binding; result = 47%
target = Serine/threonine-protein kinase LATS1 (LATS1, Homo sapiens, UniProt O95835); observed = cell-free assay; result = 98%
target = Casein kinase I isoform alpha-like (CSNK1A1L, Homo sapiens, UniProt Q8N752); observed = cell-free assay; result = 84%
target = Homeodomain-interacting protein kinase 3 (HIPK3, Homo sapiens, UniProt Q9H422); observed = cell-free assay; result = 100%
target = Activin receptor type-1B (ACVR1B, Homo sapiens, UniProt P36896); observed = cell-free assay; result = 100%
target = Epidermal growth factor receptor (EGFR, Homo sapiens, UniProt P00533, del747-750/T751S); observed = cell-free assay; result = 90%

Block 2 — measurement: viability
SMILES: CC(C)(C)c1cnc(CSc2cnc(NC(=O)C3CCN(CCCCCSc4cccc5c4CN(C4CCC(=O)NC4=O)C5=O)CC3)s2)o1 (centres unmarked)
cell line = HuT78; method = trypan blue exclusion; tested at = 50 nM; time = 48 h; relative to = untreated control; result = 53.3% and 55.6%
cell line = HuT78; observed = cell growth or viability; method = trypan blue; tested at = 50 nM; time = 48 h; result = 52.9%
cell line = HuT78; method = trypan blue exclusion; tested at = 1000 nM; time = 48 h; relative to = untreated control; result = 6.67% and 9.66%
cell line = HuT78; method = trypan blue exclusion; tested at = 100 nM; time = 48 h; relative to = untreated control; result = 23% and 16.1%
cell line = HH; method = CCK-8; tested at = 200 nM; result = 0%
cell line = HH; method = CCK-8; tested at = 1 nM; result = 105% and 98.7%

Block 3 — cell line: mouse MPNST tumor cells; method: high-content nuclear imaging; refers to: cell number; tested at: 10 µM; time: 12 h; notes: mean of 2 replicates; relative to: plate mean; direction: higher = more cells; measurement: nuclei count
Structure (SMILES) = Clc1cc2c(NC3CCCC3)nnc(-c3ccncc3)c2cc1Cl; result = 1.65 z-score
Structure (SMILES) = COc1ccc(CC2NCCc3c2[nH]c2ccc(C)cc32)cc1OC (centres unmarked); result = 2.39 z-score
Structure (SMILES) = CCOC(=O)C1=C(N2CCCCC2)C2(CC1=O)C(=O)N=C1C(C)=CC=CN12 (centres unmarked); result = 2.4 z-score
Structure (SMILES) = COc1ccc(CNc2nc(N(CCO)CCO)nc3c2ncn3C(C)C)cc1; result = 1.33 z-score

Block 4 — organism: Sarcocystis neurona; observed: parasite activity; tested at: 10 µM; time: 96 h; measurement: activity class
SMILES = COC1=CC(=O)C[C@@H](C)[C@]12Oc1c(Cl)c(OC)cc(OC)c1C2=O; result = inactive
SMILES = CCCCN1CCCC1CNC(=O)c1cc(C#N)c2ccccc2c1OC (centres unmarked); result = inactive
SMILES = CCCCC(=O)N(Cc1ccc(-c2ccccc2-c2nnn[nH]2)cc1)[C@H](C(=O)O)C(C)C; result = inactive
SMILES = CN(C)CCc1c[nH]c2ccc(C[C@H]3COC(=O)N3)cc12; result = inactive
SMILES = CC=CC(=O)N(CC)c1ccccc1C (mixture of isomers); result = inactive

Excerpt of the above (block 4):
SMILES = CN(C)CCc1c[nH]c2ccc(C[C@H]3COC(=O)N3)cc12; result = inactive
SMILES = CC=CC(=O)N(CC)c1ccccc1C (mixture of isomers); result = inactive
SMILES = CCCCC(=O)N(Cc1ccc(-c2ccccc2-c2nnn[nH]2)cc1)[C@H](C(=O)O)C(C)C; result = inactive
